Published values from different studies.
Protocols differ between the studies behind these lines. Several values in a cell are separate wells, animals, samples, runs or records. pEC50, pIC50, pKd, pKi: −log10 of the molar value.
CES2: Cocaine esterase (CES2, Homo sapiens, UniProt O00748)
Chain of UniProt O00748 (whole entry, looked up): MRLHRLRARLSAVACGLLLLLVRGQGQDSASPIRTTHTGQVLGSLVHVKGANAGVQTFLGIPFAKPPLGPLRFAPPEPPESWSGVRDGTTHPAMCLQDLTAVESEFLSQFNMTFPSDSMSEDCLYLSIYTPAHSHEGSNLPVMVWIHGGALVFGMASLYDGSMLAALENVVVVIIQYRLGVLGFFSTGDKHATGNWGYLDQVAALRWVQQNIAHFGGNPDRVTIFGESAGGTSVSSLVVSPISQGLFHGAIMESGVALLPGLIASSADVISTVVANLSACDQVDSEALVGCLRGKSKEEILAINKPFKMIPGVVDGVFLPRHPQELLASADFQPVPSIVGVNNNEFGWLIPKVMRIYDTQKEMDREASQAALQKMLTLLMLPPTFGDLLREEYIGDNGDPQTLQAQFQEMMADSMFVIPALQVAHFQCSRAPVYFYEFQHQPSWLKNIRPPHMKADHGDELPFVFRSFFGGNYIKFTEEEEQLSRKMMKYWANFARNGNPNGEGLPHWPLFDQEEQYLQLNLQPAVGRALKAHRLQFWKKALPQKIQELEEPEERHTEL
Htr2c: 5-hydroxytryptamine receptor 2C (Htr2c, Mus musculus, UniProt P34968)
Chain of UniProt P34968 (whole entry, looked up): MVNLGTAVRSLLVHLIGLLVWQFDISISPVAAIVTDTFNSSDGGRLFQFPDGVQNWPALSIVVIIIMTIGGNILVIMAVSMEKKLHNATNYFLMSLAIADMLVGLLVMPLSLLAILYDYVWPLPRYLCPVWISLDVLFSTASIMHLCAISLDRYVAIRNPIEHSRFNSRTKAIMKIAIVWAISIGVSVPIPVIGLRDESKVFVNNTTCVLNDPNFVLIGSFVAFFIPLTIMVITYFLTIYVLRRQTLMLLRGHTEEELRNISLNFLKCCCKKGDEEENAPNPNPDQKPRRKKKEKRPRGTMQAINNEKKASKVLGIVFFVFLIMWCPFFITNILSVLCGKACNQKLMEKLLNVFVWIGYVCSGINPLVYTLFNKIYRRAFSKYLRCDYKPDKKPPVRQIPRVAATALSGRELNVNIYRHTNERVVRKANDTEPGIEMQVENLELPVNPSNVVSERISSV
OPRD1: Delta-type opioid receptor (OPRD1, Homo sapiens, UniProt P41143)
Chain of UniProt P41143 (whole entry, looked up): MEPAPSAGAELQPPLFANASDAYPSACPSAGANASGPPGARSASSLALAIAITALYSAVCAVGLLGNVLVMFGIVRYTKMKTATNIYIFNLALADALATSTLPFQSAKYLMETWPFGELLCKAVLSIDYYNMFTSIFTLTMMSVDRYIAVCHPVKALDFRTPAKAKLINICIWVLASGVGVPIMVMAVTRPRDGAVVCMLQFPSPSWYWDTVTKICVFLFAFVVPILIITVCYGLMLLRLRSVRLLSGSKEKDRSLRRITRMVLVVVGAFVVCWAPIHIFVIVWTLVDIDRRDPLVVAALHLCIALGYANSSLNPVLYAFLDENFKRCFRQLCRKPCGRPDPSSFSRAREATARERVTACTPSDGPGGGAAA
HTR2C: 5-hydroxytryptamine receptor 2C (HTR2C, Homo sapiens, UniProt P28335)
Chain of UniProt P28335 (whole entry, looked up): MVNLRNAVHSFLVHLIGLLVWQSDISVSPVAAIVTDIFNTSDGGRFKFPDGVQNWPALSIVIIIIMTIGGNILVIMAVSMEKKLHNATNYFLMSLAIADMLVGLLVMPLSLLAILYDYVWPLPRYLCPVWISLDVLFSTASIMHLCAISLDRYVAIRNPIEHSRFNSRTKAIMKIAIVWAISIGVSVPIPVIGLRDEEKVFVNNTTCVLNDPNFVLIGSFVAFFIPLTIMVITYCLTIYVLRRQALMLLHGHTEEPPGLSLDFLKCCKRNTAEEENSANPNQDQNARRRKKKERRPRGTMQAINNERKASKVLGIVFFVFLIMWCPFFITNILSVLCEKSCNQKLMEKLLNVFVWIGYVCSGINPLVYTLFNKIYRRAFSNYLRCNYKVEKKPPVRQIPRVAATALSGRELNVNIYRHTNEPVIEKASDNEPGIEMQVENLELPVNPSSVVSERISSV
CNR1: Cannabinoid receptor 1 (CNR1, Homo sapiens, UniProt P21554)
Chain of UniProt P21554 (whole entry, looked up): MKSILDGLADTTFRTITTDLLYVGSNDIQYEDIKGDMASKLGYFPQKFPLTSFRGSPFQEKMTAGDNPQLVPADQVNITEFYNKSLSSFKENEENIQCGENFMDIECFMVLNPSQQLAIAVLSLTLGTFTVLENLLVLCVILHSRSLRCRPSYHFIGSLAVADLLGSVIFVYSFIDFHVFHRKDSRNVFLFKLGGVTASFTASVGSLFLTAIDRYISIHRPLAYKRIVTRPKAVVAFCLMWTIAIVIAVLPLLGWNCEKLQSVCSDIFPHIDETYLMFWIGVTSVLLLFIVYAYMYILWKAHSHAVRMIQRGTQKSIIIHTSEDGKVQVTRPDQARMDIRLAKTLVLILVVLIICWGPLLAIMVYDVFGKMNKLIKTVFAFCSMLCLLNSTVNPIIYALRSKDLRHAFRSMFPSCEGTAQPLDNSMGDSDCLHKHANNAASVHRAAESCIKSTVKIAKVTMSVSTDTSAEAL
Chain of UniProt O15245 (whole entry, unmodified, looked up): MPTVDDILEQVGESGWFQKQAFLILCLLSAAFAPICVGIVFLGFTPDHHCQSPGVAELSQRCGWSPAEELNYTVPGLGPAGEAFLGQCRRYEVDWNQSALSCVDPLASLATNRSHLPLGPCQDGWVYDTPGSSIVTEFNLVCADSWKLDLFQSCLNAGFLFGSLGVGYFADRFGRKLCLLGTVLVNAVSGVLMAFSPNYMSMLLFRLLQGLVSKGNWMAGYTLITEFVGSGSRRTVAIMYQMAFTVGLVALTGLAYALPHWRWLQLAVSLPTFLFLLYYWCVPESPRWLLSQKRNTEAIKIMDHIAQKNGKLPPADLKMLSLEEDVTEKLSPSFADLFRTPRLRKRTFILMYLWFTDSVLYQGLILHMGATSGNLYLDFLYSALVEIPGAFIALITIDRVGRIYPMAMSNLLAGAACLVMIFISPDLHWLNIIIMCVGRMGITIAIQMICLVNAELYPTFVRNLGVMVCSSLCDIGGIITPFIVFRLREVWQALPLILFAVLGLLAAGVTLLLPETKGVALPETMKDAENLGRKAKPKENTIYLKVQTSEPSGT
Chain of UniProt P08172 (whole entry, looked up): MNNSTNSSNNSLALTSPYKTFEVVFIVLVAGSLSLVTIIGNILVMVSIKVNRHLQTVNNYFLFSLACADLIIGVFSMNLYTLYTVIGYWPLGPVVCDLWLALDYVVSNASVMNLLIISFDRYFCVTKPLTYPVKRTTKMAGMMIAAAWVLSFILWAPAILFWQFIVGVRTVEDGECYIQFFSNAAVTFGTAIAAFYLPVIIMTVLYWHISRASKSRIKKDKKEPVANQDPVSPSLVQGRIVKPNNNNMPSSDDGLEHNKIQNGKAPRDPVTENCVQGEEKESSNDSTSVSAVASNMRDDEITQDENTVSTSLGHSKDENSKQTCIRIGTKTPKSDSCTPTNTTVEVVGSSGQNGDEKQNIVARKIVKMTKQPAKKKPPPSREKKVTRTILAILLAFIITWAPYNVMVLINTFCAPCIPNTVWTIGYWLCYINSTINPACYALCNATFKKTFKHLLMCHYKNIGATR
Chain of UniProt Q16512 (whole entry, looked up): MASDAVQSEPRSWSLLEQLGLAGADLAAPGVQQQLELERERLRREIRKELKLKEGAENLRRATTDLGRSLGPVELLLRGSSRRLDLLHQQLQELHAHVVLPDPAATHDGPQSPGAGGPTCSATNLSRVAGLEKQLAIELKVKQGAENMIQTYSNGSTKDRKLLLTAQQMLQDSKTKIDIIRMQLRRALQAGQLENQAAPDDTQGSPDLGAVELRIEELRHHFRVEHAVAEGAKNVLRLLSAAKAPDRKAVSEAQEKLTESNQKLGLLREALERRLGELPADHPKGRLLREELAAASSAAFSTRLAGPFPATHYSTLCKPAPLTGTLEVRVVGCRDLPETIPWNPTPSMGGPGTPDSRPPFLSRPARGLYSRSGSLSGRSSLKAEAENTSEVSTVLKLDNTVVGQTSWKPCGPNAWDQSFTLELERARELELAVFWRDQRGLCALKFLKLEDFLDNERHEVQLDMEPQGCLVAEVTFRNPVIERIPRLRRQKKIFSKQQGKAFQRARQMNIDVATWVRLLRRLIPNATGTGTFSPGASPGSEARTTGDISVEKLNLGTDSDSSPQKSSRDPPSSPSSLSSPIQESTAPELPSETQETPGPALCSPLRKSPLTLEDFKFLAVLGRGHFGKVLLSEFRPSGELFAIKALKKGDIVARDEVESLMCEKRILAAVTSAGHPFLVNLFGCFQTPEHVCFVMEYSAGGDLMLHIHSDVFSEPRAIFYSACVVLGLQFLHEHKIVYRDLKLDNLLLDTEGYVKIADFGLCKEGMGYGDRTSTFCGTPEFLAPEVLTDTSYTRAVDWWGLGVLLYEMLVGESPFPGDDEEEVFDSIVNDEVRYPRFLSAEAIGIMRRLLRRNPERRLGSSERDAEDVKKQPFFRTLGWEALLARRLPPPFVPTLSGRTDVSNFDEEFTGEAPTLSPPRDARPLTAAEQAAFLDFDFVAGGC
Chain of UniProt Q61327 (whole entry, looked up): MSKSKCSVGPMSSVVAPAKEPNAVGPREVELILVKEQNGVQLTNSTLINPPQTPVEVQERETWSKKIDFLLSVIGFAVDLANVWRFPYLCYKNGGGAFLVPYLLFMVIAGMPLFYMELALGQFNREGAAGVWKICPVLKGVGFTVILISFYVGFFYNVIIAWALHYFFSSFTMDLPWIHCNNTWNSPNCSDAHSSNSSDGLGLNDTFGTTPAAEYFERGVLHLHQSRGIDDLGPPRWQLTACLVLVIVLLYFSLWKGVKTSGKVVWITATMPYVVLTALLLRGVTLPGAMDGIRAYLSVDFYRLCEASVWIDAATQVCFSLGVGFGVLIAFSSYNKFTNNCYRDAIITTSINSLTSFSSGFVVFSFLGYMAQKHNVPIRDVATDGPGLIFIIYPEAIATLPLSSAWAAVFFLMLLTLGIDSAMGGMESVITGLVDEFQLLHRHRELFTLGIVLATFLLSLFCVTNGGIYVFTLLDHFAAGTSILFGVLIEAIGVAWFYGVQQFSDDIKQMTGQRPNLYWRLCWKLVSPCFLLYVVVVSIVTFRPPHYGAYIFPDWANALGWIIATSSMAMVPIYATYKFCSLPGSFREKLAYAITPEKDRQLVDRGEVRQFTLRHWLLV

Structure (SMILES)	target	assay	setting	quantity	value
CCN1C[C@]2(OC(=O)c3ccccc3NC(C)=O)CC[C@H](OC)[C@@]34[C@@H]2C[C@@H]([C@@H]13)[C@@]1(O)C[C@H](OC)[C@H]2C[C@@H]4[C@]1(O)[C@H]2OC	CES2	enzyme activity, inhibitor, fluorescence	with preincubation	pIC50	< 4.00
COc1cc(CCNC(C)c2ccccc2)c(OC)cc1C#N (stereo not shown)	Htr2c	G protein activation, agonist, BRET	–	pEC50	5.66
C[C@]12CC[C@H]3[C@@H](CCC4=CC(=O)CC[C@@]43C)[C@@H]1CC[C@@H]2O	CES2	enzyme activity, inhibitor, fluorescence	with preincubation	pIC50	< 4.00
O=C(N[C@H]1CC[C@@]2(O)[C@H]3Cc4ccc(O)c5c4[C@@]2(CCN3CC2CC2)[C@H]1O5)c1ccc(Cl)s1	OPRD1	ligand displacement, radioligand	cell membranes	pKi	7.54
CNC(C)Cc1ccc2c(c1)OCO2 (stereo not shown)	Multidrug and toxin extrusion protein 1 (SLC47A1, Homo sapiens, UniProt Q96FL8)	transporter uptake, inhibitor	–	pKi	5.18
NC(=O)c1ccc(C(=O)N[C@H]2CC[C@@]3(O)[C@H]4Cc5ccc(O)c6c5[C@@]3(CCN4CC3CC3)[C@H]2O6)s1	OPRD1	ligand displacement, radioligand	cell membranes	pKi	7.91
COc1cc(CCNCc2ccccc2)c(OC)cc1C#N	HTR2C	G protein activation, agonist, BRET	–	pEC50	7.05
C[n+]1ccc(-c2ccccc2)cc1	Solute carrier family 22 member 1 (SLC22A1, Homo sapiens, UniProt O15245, G465R)	cell-free assay, radioligand	–	pKd	6.42
COC(=O)[C@@H](NC(=O)c1nn(Cc2ccc(F)cc2)c2ccccc12)C(C)(C)C	CNR1	β-arrestin recruitment, agonist	–	pEC50	8.43
O=C(N[C@H]1CC[C@@]2(O)[C@H]3Cc4ccc(O)c5c4[C@@]2(CCN3CC2CC2)[C@H]1O5)c1ccc(Br)s1	OPRD1	ligand displacement, radioligand	cell membranes	pKi	7.60
CCCCCn1cc(C(=O)C2C(C)(C)C2(C)C)c2ccccc21	CNR1	ligand displacement, radioligand	cell membranes	pKi	> 7.52 and 7.54
C[C@]12CC[C@@H](O)C[C@@H]1CC[C@@H]1[C@@H]2CC[C@]2(C)C(=O)CC[C@@H]12	CES2	enzyme activity, inhibitor, fluorescence	with preincubation	pIC50	< 4.00
NCCc1ccc(Oc2ccc(O)cc2)c(I)c1	Sodium-dependent dopamine transporter (Slc6a3, Mus musculus, UniProt Q61327)	ligand displacement, radioligand	–	pIC50	6.14
NCCc1c2c(c(Br)c3c1OCC3)OCC2	HTR2C	G protein activation, agonist, BRET	–	pEC50	8.54 to 9.44
Cc1sc(CNCCCNc2cc(=O)c3ccccc3[nH]2)c(I)c1C	Dihydroorotate dehydrogenase (quinone), mitochondrial (PFF0160c, Plasmodium falciparum, UniProt Q08210, E182D)	enzyme activity, inhibitor, absorbance	–	pIC50	< 5.00
Clc1cc(Cl)cc(N2CCNCC2)c1	Muscarinic acetylcholine receptor M2 (CHRM2, Homo sapiens, UniProt P08172)	ligand displacement, radioligand	cell membranes	pKi	5.40
CC1=C(C(N)=O)C(c2ccc([N+](=O)[O-])o2)NC(=O)N1 (stereo not shown)	Thymidylate kinase (tmk, Mycobacterium tuberculosis, UniProt P9WKE1)	enzyme activity, inhibitor, absorbance	–	pIC50	7.07
CCC(NCCc1cc(OC)c(C#N)cc1OC)c1ccccc1O (stereo not shown)	Htr2c	G protein activation, agonist, BRET	–	pEC50	5.51
COc1ccc(C(=O)N[C@H]2CC[C@@]3(O)[C@H]4Cc5ccc(O)c6c5[C@@]3(CCN4CC3CC3)[C@H]2O6)s1	OPRD1	ligand displacement, radioligand	cell membranes	pKi	8.22
[2H]c1c([2H])c([C@]2([2H])CCCN2C(=O)C(C)(C)Oc2ccc3cn[nH]c3c2)c([2H])c([2H])c1C([2H])([2H])[2H]	Serine/threonine-protein kinase N1 (PKN1, Homo sapiens, UniProt Q16512)	binding, competition with immobilised ligand	1 µM	remaining binding	80%
O=C(N[C@H]1CC[C@@]2(O)[C@H]3Cc4ccc(O)c5c4[C@@]2(CCN3CC2CC2)[C@H]1O5)c1ccc(C(F)(F)F)s1	OPRD1	ligand displacement, radioligand	cell membranes	pKi	7.18
COc1cc(CCNC(C)c2ccccc2O)c(OC)cc1Br (stereo not shown)	HTR2C	G protein activation, agonist, BRET	–	pEC50	8.25
CC(=O)Nc1ccc(C(=O)N[C@H]2CC[C@@]3(O)[C@H]4Cc5ccc(O)c6c5[C@@]3(CCN4CC3CC3)[C@H]2O6)s1	OPRD1	ligand displacement, radioligand	cell membranes	pKi	8.19
COc1cc(CCNC(C)c2ccccc2O)c(OC)cc1C#N (single isomer, unassigned; (+))	HTR2C	G protein activation, agonist, BRET	–	pEC50	5.68
O=c1[nH]c(CSc2ccc3c(c2)CCC3)nc2scc(-c3ccco3)c12	Dihydroorotate dehydrogenase (quinone), mitochondrial (PFF0160c, Plasmodium falciparum, UniProt Q08210)	enzyme activity, inhibitor, absorbance	–	pIC50	< 5.00

Some of these lines once more:
Structure (SMILES)	target	assay	setting	quantity	value
COC(=O)[C@@H](NC(=O)c1nn(Cc2ccc(F)cc2)c2ccccc12)C(C)(C)C	CNR1	β-arrestin recruitment, agonist	–	pEC50	8.43
O=C(N[C@H]1CC[C@@]2(O)[C@H]3Cc4ccc(O)c5c4[C@@]2(CCN3CC2CC2)[C@H]1O5)c1ccc(Br)s1	OPRD1	ligand displacement, radioligand	cell membranes	pKi	7.60
